Measurements pooled from the literature.
Numbered parts are unrelated; each lists some results of a single study.

Set 1 — method: aptamer microarray, sandwich; molecule type: DNA with 2'F-ANA; medium: in vitro; tested at: 200 nM; added: Cy3 exosite-II aptamer, 400 nM; direction: higher = stronger binding; strand: GGTTGGTGTGGTTGG
Target: Prothrombin, mature alpha-thrombin (F2, Homo sapiens, UniProt P00734)
Setting: whole 15-mer aptamer, many near background
Modification | mean fluorescence intensity
2'F-ANA at 3 8 9 10 11 15 | 474 a.u.
2'F-ANA at 2 4 7 8 11 | 408 a.u.
2'F-ANA at 1 2 3 4 8 9 11 12 13 15 | 213 a.u.
2'F-ANA at 4 6 9 11 12 13 14 15 | 94.8 a.u.
2'F-ANA at 1 4 6 7 9 11 12 13 14 15 | 52.8 a.u.
2'F-ANA at 1 2 3 4 5 6 11 12 15 | 74 a.u.
2'F-ANA at 1 2 3 6 10 11 12 13 14 | 58.1 a.u.
2'F-ANA at 1 4 5 8 9 10 11 14 | 47.7 a.u.
2'F-ANA at 1 3 4 5 9 11 | 52.3 a.u.
2'F-ANA at 2 3 4 5 6 8 10 11 12 13 14 | 49.9 a.u.
2'F-ANA at 1 3 4 5 6 8 10 11 13 14 | 48.5 a.u.
2'F-ANA at 2 3 4 7 8 9 10 15 | 260 a.u.
2'F-ANA at 2 3 7 9 10 12 13 15 | 408 a.u.
2'F-ANA at 1 5 6 7 8 11 12 14 15 | 50.3 a.u.

Set 2 — method: universal PBM; molecule type: double-stranded DNA, one strand shown; medium: in vitro; tested at: not given; direction: higher = stronger binding
Target: Sal-like protein 4, full length isoform B (SALL4, Homo sapiens, UniProt Q9UJQ4-2, residues 1-616)
Setting: 8-mer, flanks averaged, mean of replicates
Construct (chain): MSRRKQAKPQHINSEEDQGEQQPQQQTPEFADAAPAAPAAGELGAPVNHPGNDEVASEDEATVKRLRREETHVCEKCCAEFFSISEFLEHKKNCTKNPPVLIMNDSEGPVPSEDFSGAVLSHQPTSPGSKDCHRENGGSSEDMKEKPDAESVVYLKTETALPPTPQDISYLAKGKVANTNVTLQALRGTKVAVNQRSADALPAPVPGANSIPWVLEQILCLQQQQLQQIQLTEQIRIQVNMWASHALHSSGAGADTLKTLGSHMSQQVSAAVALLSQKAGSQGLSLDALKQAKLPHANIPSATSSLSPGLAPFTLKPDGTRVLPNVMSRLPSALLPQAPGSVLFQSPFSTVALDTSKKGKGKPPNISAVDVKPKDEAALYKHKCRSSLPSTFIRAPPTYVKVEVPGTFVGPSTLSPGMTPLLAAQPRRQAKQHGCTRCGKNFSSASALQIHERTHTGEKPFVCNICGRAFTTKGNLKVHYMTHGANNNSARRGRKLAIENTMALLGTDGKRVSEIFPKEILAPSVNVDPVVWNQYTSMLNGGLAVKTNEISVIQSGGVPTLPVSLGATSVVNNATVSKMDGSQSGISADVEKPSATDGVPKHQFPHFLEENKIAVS
Strand | E-score
GGGTTAAC | -0.0934
CGCCGCGA | -0.195
ATCGAGGC | -0.115
TGAGCACA | 0.00975
ACACCAGA | 0.059
AATTGATG | 0.31
GCCAGAAC | -0.178
ACTCACCT | -0.187
GACTGTGC | -0.121
CCTTCAAG | -0.0532
ACGGGTGA | -0.246
TGTGCAAA | 0.102
AGAGCGCT | -0.133
AGACATAC | 0.167
AAGCTGTC | -0.222
AAGCGGAT | -0.0616
ATGCTTCC | 0.0194
CGTGGTTA | -0.0508
ACCTACTC | -0.0376
TAAATCAA | 0.338
CGGAGGGC | -0.322
ACTAGCCC | -0.125
ATCCACTG | -0.111
CGTACGAC | 0.0119
GCCGCACC | -0.291

Set 3 — method: protein binding microarray; molecule type: double-stranded DNA, one strand shown; medium: in vitro; tested at: not given; reference: not given; direction: higher = stronger binding
Target: Histone acetyltransferase KAT6A, winged helix 2, GST fusion (KAT6A, Homo sapiens, UniProt Q92794, residues 85-181)
Setting: 8-mer, flanks averaged, mean of 2 arrays, mostly near background
Construct (chain): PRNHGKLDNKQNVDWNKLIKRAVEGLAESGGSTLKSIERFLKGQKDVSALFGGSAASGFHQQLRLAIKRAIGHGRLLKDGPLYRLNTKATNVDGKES
Strand | E-score
CCGATAAG | -0.0733
CAAATATA | -0.0695
TCGCCTAA | -0.00924
ACCGTTAC | -0.163
ATAGTGAA | 0.0735
AACCCATA | 0.0501
CACCCTAA | -0.124
CTGACATC | -0.0561
AGTCCGAG | 0.169
AATGGTTG | -0.0182
CCGGAACC | 0.129
AAATTAAC | 0.0731
CCTTGTCA | 0.000505
AGCAAAGC | 0.063
CACCGTCA | -0.00169

Set 4 — method: RNA Bind-n-Seq; molecule type: RNA; medium: in vitro; tested at: 365 nM; reference: no-protein control; direction: higher = stronger binding
Target: RNA binding protein fox-1 homolog 2, RRM domain, GST-SBP tag (RBFOX2, Homo sapiens, UniProt O43251-10, residues 100-194)
Setting: natural RNA segment, single round, ends assumed
Shared flanks, not repeated: GGGAGUUCUACAGUCCGACGAUC … UGGAAUUCUCGGGUGCCAA
Construct (chain): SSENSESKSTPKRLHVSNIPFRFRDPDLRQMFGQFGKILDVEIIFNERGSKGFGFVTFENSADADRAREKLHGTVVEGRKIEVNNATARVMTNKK
Strand | RBNS enrichment (R)
GAUGGUGGAAUCUUUGGGGAAACUUUAAAGUAACUAAUUUUUAUUUAAAAAAAAAAUCUCGGCAGACAUAAGAGAACACAACCCCCCAUGCACAUCUGUAAAUGACUGUA | 0.597
UGGAUGCACGUGAGUGGGUAGCAGGGAGUCAGGAUCCUGCCUUCUCCAGCAACCCCUUACUGCUGUAUAACUUGCAUAAGCCUCCCUGGUGACUCUUGCAGGAACCACUC | 0.233
ACAGACGGACUUGGGUUAAGGGAAUGGGGACGACAGCUUUGGUGCUAAGUUAAUCAGAAAUUGCGAGCAUGCACAGUGGUAUGCCAGCCUGGGUGAUGCUUUCCUAGGAG | 6.97
CCGUUUGCUUUGGAAAAAACAAAACAAAACAAAACAAAACAAAAAACAAAAACACUGCGCAUUUCAAUCAUCUGCACCUUUCCCUCGUUUUGCAUUAGUACUGAAAUCUG | 0.96
CCAAGAUCUCAAACUAGGGCUUCCGUCUGUGAUGAGGACGCCUCUGAAGAAAUCUCAAGCUCCCAAUUUUGGUUGCACUUUACGAACAUGCUCACUUCGUUAGCAUUUCU | 0.552
CCUUCCCAGUGUGGGAUCAGGCUCUGUGCCACUGCCGGGGUCUGCAGGGUGUUAGCAAAGUUUUCCCAGUUAGUAGUGCCAGUUCUAGGCUGAAUGGGAGAGUCCUCCAC | 0.924
UUACUAUGCCUCAAGCCCAGUUUGCUUUUGCCGCAGCGAUGGGGCCAGUCUCAUUCCUCCCCAGGAGUGAAACUUGCUUCAGCUGAAAAGGUUGGGUGCAUUGUCAGUAA | 0.258
CCGCAUCUUUCUCUCUCCUCCAAAUGACAAAGUUUGGGGAAUUUUUGAAUUUUCCUAGCAUCGCCCUUGUGCUCAUCAGGUAAUCUGCUAAGGAGGAAAAAAGAAAAGAA | 0.567
CCCAGGGCAGAUGCUGCCUUUAUCUUCUAUCAUUUGUAUGACGUGGCUGGAUGGAGUUUCUUUUGUAAGGUGCACAACACAUUCUUGACAAAUGUGAGUCUCCUGAUCAA | 0.414
AAAUUUGCUUUUCCCCAUAGCAUGUUAGGAAGGAAGUACAGGUCGUUACCUAAGCUAGCGUGGGCUUCCAGUUGCCUUAAUAGAAGUACUCAAGUCUCUUGGGUAGAGAU | 49
CUUUCUGAGUCUUAACCUCCUUGUCUCUAAAAUGGGCAAUUAAAACAAUCUUCAAGAGCCCUGUAAGGUUAAUGCCGAUAAAAUGACUGACUCCGCCCUUCUUCCUUAGU | 0.253
AAAGGCCCUACCAGAGGGAACACGGCCUACUGAGCGGACAGAAUGAUGCCAAAAUAUUGCUUAUGUCUCUACAUGGUAUUGUAAUGAAUAUCUGCUUUAAUAUAGCUAUC | 0.365

Set 5 — method: RNA Bind-n-Seq; molecule type: RNA; medium: in vitro; tested at: 1 µM; setting: whole 134-nt RNA, ends assumed; added: 150 mM KCl; reference: input library; direction: higher = stronger binding
Target: Ras GTPase-activating protein-binding protein 1, RRM domain (G3BP1, Homo sapiens, UniProt Q13283)
Sequence of UniProt Q13283 (whole entry, looked up): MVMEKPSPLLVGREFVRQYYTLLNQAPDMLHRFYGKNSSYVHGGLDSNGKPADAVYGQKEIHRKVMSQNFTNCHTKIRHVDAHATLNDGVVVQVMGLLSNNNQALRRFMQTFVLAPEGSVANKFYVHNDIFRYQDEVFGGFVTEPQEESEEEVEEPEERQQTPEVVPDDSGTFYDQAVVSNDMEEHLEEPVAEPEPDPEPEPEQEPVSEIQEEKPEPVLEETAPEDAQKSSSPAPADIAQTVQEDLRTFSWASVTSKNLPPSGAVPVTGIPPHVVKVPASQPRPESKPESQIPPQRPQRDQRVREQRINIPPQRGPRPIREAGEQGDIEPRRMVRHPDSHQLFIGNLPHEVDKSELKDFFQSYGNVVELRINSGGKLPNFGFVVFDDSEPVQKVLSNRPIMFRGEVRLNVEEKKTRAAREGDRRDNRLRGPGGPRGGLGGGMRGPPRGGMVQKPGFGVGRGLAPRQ
Shared flanks, not repeated: GGGAGUUCUACAGUCCGACGAUC … UGGAAUUCUCGGGUGUCAAGG
Strand | log2 enrichment
CCUCAAGUCCUGUGCUACACAUCGUAUGUACCGAAUCGGGUUGGGUUGGUUGGAAAGUAUUAUGUUACGCCGUUCGGAUCUGCACUUCCA | -0.22
UGGGAGGUGGAUUUUGUUUAUUUUUUUAGCUCAUUUCCAGGGGUGGGAAUUUUUGUUUAAUAUGUGUCAUGAAUAAAGUUGUUUUUGAAA | 2.42
UCUAUUCAUAAGAACCCCAACACAUCGGAGCCCCAACACCUGUUGGUGAUGAAGGGCGCCCCAGAAAGGAUCCUAGACCGUUGCAGCUCU | 0.0574
UCCUCAAGUCCUGUGCUACACAUCGUAUGUACCGAAUCGGAGGAAAGGUGGAAAGUAUUAUGUUACGCCGUUCGGAUCUGCACUUCCAGC | -0.203
UUCCGCUGUCUUUUCUGUCUACAGUUUGCGAUCCCCGCGUCCAGGAUGGAGCAGCUGAACGAACUGGAGCUGCUGAUGGAGAAGAGUUUU | -0.206
GCAGGAAGUAAAAACAAAUGGAAAUGCUUCGGAUAAUGGCAGGGGUGGGGGUUGCUAAGGAAAGGGUGGGAUGGGAGUGGGUAAAGAGUU | 0.981
UGCCAAAGUAUGGCAAGAAAUUGCUCCUGGAAAUACUGAUGCCACCCCAGUAACUCAUGGAACUGAAAGCUCUUGGCAUGAAAUAGCAGC | 0.0546
UGUGCUACACAUCGUAUGUACCGAAUCGGGAAAAAAAGGGAAAAAAAGGGGAAAAAAAGGGGAAAGUAUUAUGUUACGCCGUUCGGAUCU | 0.318
UGUGCUACACAUCGUAUGUACCGAAUCGGGGUUUUUUUGGGGUUUUUUUGGGGUUUUUGGGGAAAGUAUUAUGUUACGCCGUUCGGAUCU | 0.835
ACCAUGCAGGUGGGCAUCUUUGGGAAGUGGGGCAAGGGGGGGAUAGGGAGGUGGGUAACACUUUGGGAACAGGUGGUCCCAGGUCGUUUC | 0.621
UUAGGGCCAAUCUUCGUCAAUAUGGUUUAGAGAAGUAUUACCUUGAUGUCCUGGUUUCAGAUGCAUCUAAACCUUCCUGGAGGAAGGGCA | -0.308
UAACUUUAGAGGAGGAUCUGAUGGAUAUGGGAGUGGACGUGGAUUUGGGGAUGGCUAUAAUGGGUAUGGAGGAGGACCUGGAGGUGGCAA | -0.233
UGGCGCUGUCCUGGACUUGAUGGGGGAUGAAGCCCAGAACCUGACGAGGGGCCGGCAGCAGCUCAAGUGGUGAGUGAUCGAGUGAGCCGC | -0.434
UGGCCCUGGUGGCAUGCGGGGAGGAAGAGGUGGCCUCAUGGAUCGUGGUGGUCCCGGUGGAAUGUUCAGACGUGGCCGUGGUGGAGACAG | 1.47
